Assay results pooled from the literature.
Every numbered part comes from another study and shows a few of its results, in no order.

Study 1 — method: universal PBM; form: double-stranded DNA, one strand shown; matrix: in vitro; concentration: 600 nM; direction: higher = stronger binding
Target: Sal-like protein 4, full length isoform A (SALL4, Homo sapiens, UniProt Q9UJQ4, residues 1-1053)
Sequence of UniProt Q9UJQ4 (whole entry, looked up): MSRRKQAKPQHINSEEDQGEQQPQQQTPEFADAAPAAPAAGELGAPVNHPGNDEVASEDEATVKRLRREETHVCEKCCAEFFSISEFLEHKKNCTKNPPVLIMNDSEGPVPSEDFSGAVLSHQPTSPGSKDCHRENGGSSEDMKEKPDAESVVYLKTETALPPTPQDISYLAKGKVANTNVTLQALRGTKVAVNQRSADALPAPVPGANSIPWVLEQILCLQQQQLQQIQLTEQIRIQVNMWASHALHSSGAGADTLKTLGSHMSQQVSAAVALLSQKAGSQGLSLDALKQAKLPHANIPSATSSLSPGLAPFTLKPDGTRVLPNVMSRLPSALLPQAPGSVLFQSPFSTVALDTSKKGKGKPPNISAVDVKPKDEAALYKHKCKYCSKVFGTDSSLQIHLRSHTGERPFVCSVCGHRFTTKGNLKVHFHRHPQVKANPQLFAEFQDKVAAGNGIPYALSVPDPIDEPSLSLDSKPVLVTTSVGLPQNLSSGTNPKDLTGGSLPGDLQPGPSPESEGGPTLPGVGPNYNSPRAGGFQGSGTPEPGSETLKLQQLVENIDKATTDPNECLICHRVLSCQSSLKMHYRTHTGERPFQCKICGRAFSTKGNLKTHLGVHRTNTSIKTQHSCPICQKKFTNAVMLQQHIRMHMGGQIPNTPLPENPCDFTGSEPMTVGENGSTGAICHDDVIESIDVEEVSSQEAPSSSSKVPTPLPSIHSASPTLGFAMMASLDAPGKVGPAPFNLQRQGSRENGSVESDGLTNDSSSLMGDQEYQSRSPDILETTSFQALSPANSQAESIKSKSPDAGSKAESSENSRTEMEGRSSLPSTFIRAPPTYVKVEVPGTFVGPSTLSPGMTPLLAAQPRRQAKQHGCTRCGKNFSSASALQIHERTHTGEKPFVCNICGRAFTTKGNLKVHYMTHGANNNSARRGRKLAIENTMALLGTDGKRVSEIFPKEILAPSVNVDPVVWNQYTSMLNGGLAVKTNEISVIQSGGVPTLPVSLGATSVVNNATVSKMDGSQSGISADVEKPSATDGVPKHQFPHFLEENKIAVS
Notes: 8-mer, flanks averaged, mean of replicates
`AAGCTAGA` has an E-score of 0.1.
The E-score of `CGTAGGCC` is reported as -0.0765.
For `CTAGGCAC`, the E-score was -0.139.
The E-score of `CATCGGCG` is reported as -0.27.
The E-score of `TAACATCA` is reported as 0.257.
With `CCATGCGG` the E-score was -0.273.

Study 2 — method: competition protein-binding microarray; form: double-stranded DNA, one strand shown; matrix: in vitro; concentration: 2 µM; together with: Cbf1 competitor, 0.05 µM; direction: higher = stronger binding
Target: Phosphate system positive regulatory protein PHO4, full length, GST-tagged (PHO4, Saccharomyces cerevisiae, UniProt P07270, residues 1-312)
Notes: whole 60-bp probe, lowest competitor level
Construct (chain): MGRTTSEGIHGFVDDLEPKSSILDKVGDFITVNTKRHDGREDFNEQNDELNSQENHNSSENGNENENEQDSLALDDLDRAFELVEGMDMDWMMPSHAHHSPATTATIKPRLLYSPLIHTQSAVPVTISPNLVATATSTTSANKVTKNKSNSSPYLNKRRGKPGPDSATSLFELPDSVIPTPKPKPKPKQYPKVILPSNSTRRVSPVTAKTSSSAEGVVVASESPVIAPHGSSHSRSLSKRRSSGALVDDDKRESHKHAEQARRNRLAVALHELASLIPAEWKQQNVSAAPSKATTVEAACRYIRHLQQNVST
`GTAAGGGTGAGGGGCCACGTGGCAATCAGAGCAGCTGTCTTGATTCGCTTGACGCTGCTG` has a fluorescence intensity of 17800 a.u.
`TACTAGTACGTAAACAACGTGGTGAAGTAGAAAAAAGTCTTGATTCGCTTGACGCTGCTG` has a fluorescence intensity of 13100 a.u.
`TTAGAATCGCTTTGTCACGTTTTTTTTTATTTCTTGGTCTTGATTCGCTTGACGCTGCTG` gave a fluorescence intensity of 12900 a.u.

Study 3 — method: protein binding microarray; form: double-stranded DNA, one strand shown; matrix: in vitro; concentration: not given; relative to: not given; direction: higher = stronger binding
Target: Histone acetyltransferase KAT6A, both winged helices, GST fusion (KAT6A, Homo sapiens, UniProt Q92794, residues 1-181)
Notes: 8-mer, flanks averaged, mean of 2 arrays, mostly near background
Target sequence (chain): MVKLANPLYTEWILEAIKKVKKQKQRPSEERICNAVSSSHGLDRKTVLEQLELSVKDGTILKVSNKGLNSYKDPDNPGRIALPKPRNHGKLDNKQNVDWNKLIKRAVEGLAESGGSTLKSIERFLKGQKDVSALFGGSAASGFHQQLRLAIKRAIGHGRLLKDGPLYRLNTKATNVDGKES
With `GGAAAGGA` the E-score was 0.00489.
With `AGTACGCC` the E-score was 0.173.
`GTGATTGA` gave an E-score of 0.0313.
`AAAAATCG` gave an E-score of -0.101.

Mixed results
With `PhoQ, residues 284 288 289 292 302 303 NSMLDC` the fold induction was 14.7 (PhoP, residues 12 14 15 18 19 SQCLL (Escherichia coli, UniProt P23836); Sort-seq, measured: YFP reporter; E. coli; PhoQ-PhoP variant library, together with: 10 µM Mg2+; relative to: high Mg2+ state, higher = stronger signaling).

Excerpt of the above (study 1):
The E-score of `TAACATCA` is reported as 0.257.
The E-score of `CGTAGGCC` is reported as -0.0765.
